Measurements gathered from unrelated publications.
± marks the error that the study gave.

For `CNC(=O)c1ccccc1Oc1nc(Nc2cc(OC)c(OC)c(OC)c2)ncc1Br`, ERK phosphorylation read “inhibited” (C2C12 myotubes; immunoblot, measured: phospho-ERK; 5 µM).
`COc1cc(CNC(=O)C[C@H](C)CCC=C(C)C)ccc1OCc1cn(-c2ccc(Br)cc2)nn1` has a growth percent of 85.4% (Malme-3M melanoma cells; SRB; 10 µM, 48 h).
`O=Cc1c(O)ccc2ccccc12`: “log2 fold change” -2.92 (HUVEC; RNA sequencing, measured: GDF3; 75 µM, 24 h; baseline: DMSO).
For `Cc1nn(-c2ccc(S(=O)(=O)N[C@@H](CO)CC(C)C)cc2)c2nn3nnnc3nc12`, the necrotic cells was 24 ± 1.4% (HT-29; PI/Hoechst staining; 2 µM, 24 h).
For `Cc1cnc(NC(=O)c2cc(S(=O)(=O)N(C)C)ccc2N2CCCC2)s1`, “PTK7 and MET N-glycosylation” read “decreased” (HCC827 and HCC827-GR; Western blot, measured: PTK7, MET, STAT3 signalling; 10 µM, 24 h).
With `COc1cc([C@@H]2OC[C@@H]3[C@H]2CO[C@H]3c2cc(OC)c(O)c(OC)c2)cc(OC)c1O` the glucose consumption was 8.97 ± 0.47 mM (HepG2, palmitic acid-induced insulin resistance; 12.5 µM, 24 h).
`Cc1c2ccnc(C(=O)N[C@H](C)CN(C)C)c2cc2c3cc(OCCCN4CCN(C)CC4)ccc3n(C)c12`: “significantly affected genes” 0.098% (healthy donor iPSCs; RNA-seq; 0.1 µM).
With `CC(=O)N[C@H](C(=O)N[C@H](C(=O)N[C@@H](CCCNC(=N)N)C(=O)N1Cc2ccccc2C[C@H]1C(=O)N[C@@H](Cc1ccccc1)C(N)=O)C1CCCCC1)C(C)C` the cytokine level was 60.1 ± 78.5 pg/mL (MBP-specific BC-3 T cells; Bio-Plex multiplex, measured: IL-13; 200 µg/mL, 24 h, with: MBP87-99 antigen).
The glucose consumption of `CC(C)=CCc1c(O)cc2c(c1O)C(=O)OC2` is reported as 8.96 ± 0.9 mM (HepG2, palmitic acid-induced insulin resistance; 2.5 µM, 24 h).
For `C=CC(=O)Nc1cc(Nc2nccc(-c3c(-c4cccc(F)c4)n(C)c4ccccc34)n2)c(OC)cc1N(C)CCN(C)C`, protein level read “increased” (H1975; Western blot, measured: Bax; concentration not given, 24 h).
`Cc1c(C(=O)NNC(=S)Nc2ccc(Cl)cc2)nnn1Cc1nc2ccccc2[nH]1`: “cells in G2/M phase” 14% (HepG2; PI flow cytometry; concentration not given).
`CC(C)[C@@H](NC(=O)[C@H](N)CCCNC(=N)N)C(=O)N[C@H](CCCCN)C(=O)N[C@@H](C(=O)N[C@H](CCCCN)C(=O)N[C@@H](C(=O)N[C@@H](C(=O)N[C@@H](C(=O)N[C@@H](C(=O)N[C@H](CCCNC(=N)N)C(=O)N[C@H](CCCNC(=N)N)C(=O)N[C@H](CCCNC(=N)N)C(=O)N[C@H](CCCNC(=N)N)C(=O)N[C@H](CCCNC(=N)N)C(=O)N[C@H](CCCNC(=N)N)C(=O)N[C@H](CCCNC(=N)N)C(=O)N[C@H](CCCNC(=N)N)C(=O)N[C@H](CCCNC(=N)N)C(N)=O)C(C)C)C(C)C)C(C)C)C(C)C)C(C)C`: Ki67 expression “increased” (human PBMC CD4+ T cells; flow cytometry; concentration not given, 72 h, unstimulated).
`CSC(=NN=C(C)c1ccc(S(=O)(=O)N2CCC(C)CC2)cc1)N(C)C` — result for “cells in %G0-G1”: 35.3% (HepG2; flow cytometry; 3.31 µM, 72 h).
With `S=C(N/N=C/c1ccc(-c2ccccc2)s1)Nc1ccccc1` the cytotoxic concentration was at least 100 µM (HEL human lung fibroblasts; altered cell morphology, microscopy; confluent cultures).
`Nc1c(S(=O)(=O)O)cc(Nc2cccc(S(N)(=O)=O)c2)c2c1C(=O)c1ccccc1C2=O` — result for mRNA level: “increased” (primary mouse articular chondrocytes; real-time PCR, measured: Col2a1; 25 µM, micromass culture).
With `CCC(=C(c1ccc(Cl)cc1)c1ccc(OCCN2CCCCCC2)cc1)c1ccccc1` the growth inhibition was 22.7% (NCI-60 tumour cell lines; 10 µM, mean over cell lines).
`O=C(/C=C/c1cccc(S(=O)(=O)NCc2ccccc2)c1)NO` gave a relative potency of 1.09 (MOPC-315; cell growth; 24 h; baseline: belinostat).
Under viability, `CC(=O)N[C@H](C(=O)N[C@@H](CCCNC(=N)N)C(=O)N[C@@H](CCCCN)C(=O)N[C@@H](CCCNC(=N)N)C(=O)N[C@H](C(=O)N[C@@]1(C)CCCC=CCCC[C@@](C)(C(=O)N[C@@H](CCC(N)=O)C(=O)N[C@@H](CCC(=O)O)C(=O)N[C@@H](CCCNC(=N)N)C(=O)N[C@@H](CCC(=O)O)C(=O)N[C@@H](CC(C)C)C(=O)N[C@H](C(=O)N[C@@H](CCC(=O)O)C(N)=O)C(C)C)NC(=O)[C@H](CC(C)C)NC(=O)[C@H](CCCNC(=N)N)NC(=O)[C@H](CCCNC(=N)N)NC1=O)[C@@H](C)O)C(C)C` is recorded as “inactive” (A-431, H2030, H3255, H1975, SK-N-MC; CellTiter-Glo; concentration not given, 18 h).
`CC(=O)O[C@@H]1CC[C@@]2(C)C(CC[C@]3(C)C2C(=O)C=C2C4[C@@H](C)[C@H](C)CC[C@]4(C)CC[C@]23C)[C@@]1(C)C(=O)OCC(=O)Oc1cc(C)ccc1C(C)C` (stereo partly drawn) gave an MDA level of 8.2 nmol/mg (HepG2; 1 µM, acetaminophen-induced injury, with: 10 mM acetaminophen).
The growth percent of `COc1cc(CNC(=O)C[C@H](C)CCC=C(C)C)ccc1OCc1cn(-c2ccc(Cl)cc2Cl)nn1` is reported as 52.3% (SF-268 CNS cancer cells; SRB; 10 µM, 48 h).
For `CCC(=C(c1ccc(Cl)cc1)c1ccc(OCCN(C)C)cc1)c1ccc(OC)cc1`, the growth inhibition was 8.37% (NCI-60 tumour cell lines; 10 µM, mean over cell lines).
`CO[C@H]1N(OC)c2ccccc2[C@@]12CN=C(Nc1cc(C(F)(F)F)cc(C(F)(F)F)c1)S2` (relative stereo) — result for “S phase cells”: 5.71 ± 1.73% (HCT-116; PI flow cytometry; 40 µM, 72 h).
For `CO[C@@H]1[C@H](N(C)C(=O)c2ccccc2)C[C@H]2O[C@]1(C)n1c3ccccc3c3c4c(c5c6ccccc6n2c5c31)C(=O)NC4`, “viable CD19+ B cells” read 100% (CLL patient B cells; flow cytometry; human; 1 nM; baseline: untreated).
For `CC(C)=CCc1c(O)cc(CO)cc1O`, the glucose consumption was 4.79 ± 0.65 mM (HepG2, palmitic acid-induced insulin resistance; 12.5 µM, 24 h).
For `CC/C=C\C/C=C\C/C=C\C/C=C\C/C=C\C/C=C\CCC(=O)Nc1ccn(C2OC(CO)C(O)C2(F)F)c(=O)n1` (stereo not drawn), the TGI was 0.21 µM (M14; NCI60 screen).
For `CCN(CC)CC(=O)Nc1cccc(-n2cc(-c3ccc4ccc(-c5cn(-c6cccc(NC(=O)CN(CC)CC)c6)nn5)cc4c3)nn2)c1`, colony formation read “decreased” (RCC4 with VHL; 5 and 10 × IC50, 4 h, normoxia and hypoxia).
With `COc1cc(CNC(=O)C[C@H](C)CCC=C(C)C)ccc1OCc1cn(-c2cccc(Cl)c2)nn1` the growth percent was 87.2% (Malme-3M melanoma cells; SRB; 10 µM, 48 h).
`Cc1cc(-c2cn([C@@H]3O[C@H](CO)[C@@H](O)[C@H]3O)c3ncnc(N)c23)ccc1Cl` gave an EC50 of over 200 µM (HEK; cytotoxicity).
`CC(=NN=c1sc(C(=O)c2ccccc2)nn1-c1ccccc1)c1ccc(S(=O)(=O)N2CCC(C)CC2)cc1`: “apoptotic cells late” 13.9% (HepG2; annexin V/PI staining; IC50, 72 h).
The growth percent of `COc1cc(CNC(=O)C[C@H](C)CCC=C(C)C)ccc1OCc1cn(-c2ccccc2Cl)nn1` is reported as 49.8% (OVCAR-8 ovarian cancer cells; SRB; 10 µM, 48 h).
`CC(=O)OC[C@H]1O[C@@H](Sc2nc3c4cnn(C(=O)CNc5ccc(C)cc5)c4ncn3n2)[C@H](OC(C)=O)[C@@H](OC(C)=O)[C@@H]1OC(C)=O` — result for “late apoptotic cells”: 12.9% (HCT cells; annexin V-FITC/PI flow cytometry; concentration not given, 48 h).
`COc1cc(OC)cc(C2=C3C(C)=C(I)C(C)=[N+]3[B-](F)(F)n3c(/C=C/c4c[nH]c5ccccc45)c(I)c(C)c32)c1`: “dark over light toxicity ratio” 74 (HEp-2; light 1.5 J/cm^2).
`COc1cc(CNC(=O)C[C@H](C)CCC=C(C)C)ccc1OCc1cn(-c2ccc(C#N)cc2)nn1` has a growth percent of 75.4% (Malme-3M melanoma cells; SRB; 10 µM, 48 h).
`C[n+]1cn(C2OC(COP(=O)(O)OP(=O)([O-])OP(=O)(O)OCC3OC(n4cnc5c(=O)[nH]c(N)nc54)C(O)C3O)C(O)C2O)c2nc(NCc3ccccc3)[nH]c(=O)c21` (stereo not drawn) — result for “relative protein expression”: 1.8 ± 0.34 (HEK293 transfected with capped mRNA; luciferase expression; baseline: m7GpppG-capped mRNA).
The viability of `CC[C@H](C)[C@H](NC(=O)[C@@H](NC(=O)[C@@H](N)C(C)C)C(C)C)C(=O)N[C@@H](C)C(=O)O` is reported as 90.5% (PC-12; Aβ42-induced neurotoxicity, inhibitor, MTT; concentration not given, 6 h, 37 °C, peptide to Aβ42 1:2, with: Aβ42 2 µM; baseline: untreated cells).
`CC(Cc1ccc(Cl)cc1)=C(c1ccc(Cl)cc1)c1ccc(OCCN(C)C)cc1` gave a GI50 of 5.19 µM (M14; cell growth or viability, SRB).
The growth of `CC(=O)OC[C@H]1O[C@@H](Sc2sc(C(=O)c3ccc(C)cc3)c(N)c2-c2nc3ccccc3s2)[C@H](OC(C)=O)[C@@H](OC(C)=O)[C@H]1OC(C)=O` is reported as 106% (HCC 2998; SRB; 10 µM, 48 h; baseline: untreated).
For `COc1cc(CNC(=O)C[C@H](C)CCC=C(C)C)ccc1OCc1cn(-c2cccc(C(F)(F)F)c2)nn1`, the growth percent was 80.8% (Malme-3M melanoma cells; SRB; 10 µM, 48 h).
`COc1ccc([C@@H]2CC(=O)c3c(O)cc(O[C@@H]4O[C@H](CO[C@@H]5O[C@@H](C)[C@H](O)[C@@H](O)[C@H]5O)[C@@H](O[C@H]5O[C@H](CO)[C@@H](O)[C@H](O)[C@H]5O)[C@H](O)[C@H]4O)cc3O2)cc1O` has a cell count of 27500 ± 412 (A549; trypan blue exclusion; 50 µg/mL, 72 h).
For `CN(C(=NN=C(c1ccccc1)c1ccccn1)[S][Ga]([Cl])[Cl])C1CCCCC1`, the protein level was about 1.5 fold (HepG2; western blot, measured: TfR1; 5 µM, 24 h; baseline: vehicle).
`CC1=CC(OC(=O)c2ccccc2)C2(COC(=O)c3ccccc3)CCC(=C(C)C)C2C(O)CC2(C)OC2CC1` (stereo not drawn) gave a glucose consumption of 4.59 ± 0.45 mM (HepG2, palmitic acid-induced insulin resistance; 5.0 µM, 24 h).
For `O=[N+]([O-])c1ccc(C=[N+]2N=C(Nc3ccccc3)[S][Pd-]2([Cl])[Cl])s1`, the cytotoxic concentration was at least 100 µM (HEL human lung fibroblasts; altered cell morphology, microscopy; confluent cultures).

Some of these lines once more:
For `CC/C=C\C/C=C\C/C=C\C/C=C\C/C=C\C/C=C\CCC(=O)Nc1ccn(C2OC(CO)C(O)C2(F)F)c(=O)n1` (stereo not drawn), the TGI was 0.21 µM (M14; NCI60 screen).
For `CCN(CC)CC(=O)Nc1cccc(-n2cc(-c3ccc4ccc(-c5cn(-c6cccc(NC(=O)CN(CC)CC)c6)nn5)cc4c3)nn2)c1`, colony formation read “decreased” (RCC4 with VHL; 5 and 10 × IC50, 4 h, normoxia and hypoxia).
With `COc1cc(CNC(=O)C[C@H](C)CCC=C(C)C)ccc1OCc1cn(-c2cccc(Cl)c2)nn1` the growth percent was 87.2% (Malme-3M melanoma cells; SRB; 10 µM, 48 h).
`Cc1cc(-c2cn([C@@H]3O[C@H](CO)[C@@H](O)[C@H]3O)c3ncnc(N)c23)ccc1Cl` gave an EC50 of over 200 µM (HEK; cytotoxicity).
`CC(=NN=c1sc(C(=O)c2ccccc2)nn1-c1ccccc1)c1ccc(S(=O)(=O)N2CCC(C)CC2)cc1`: “apoptotic cells late” 13.9% (HepG2; annexin V/PI staining; IC50, 72 h).
